Experimental data gathered from unrelated publications.
Every numbered part comes from another study and shows a few of its results, in no order. Changes are numbered by the printed parent chain.

Study 1
Target: Interferon regulatory factor 3, full length, phosphomimetic (IRF3, Homo sapiens, UniProt Q14653, residues 1-427, S386D/S396D/S398D/S402D/T404D/S405D)
Method: protein-binding microarray
Form: double-stranded DNA, one strand shown
Matrix: in vitro
Tested at: 2540 nM top
Setting: 60-bp whole probe
With: salmon DNA 0.4 mg/ml
Relative to: random background probes
Reading: higher = stronger binding
Shared flanks, not repeated: GCCTAGCAC … GTCTTGATTCGCTTGACGCTGCTG
Residues (chain): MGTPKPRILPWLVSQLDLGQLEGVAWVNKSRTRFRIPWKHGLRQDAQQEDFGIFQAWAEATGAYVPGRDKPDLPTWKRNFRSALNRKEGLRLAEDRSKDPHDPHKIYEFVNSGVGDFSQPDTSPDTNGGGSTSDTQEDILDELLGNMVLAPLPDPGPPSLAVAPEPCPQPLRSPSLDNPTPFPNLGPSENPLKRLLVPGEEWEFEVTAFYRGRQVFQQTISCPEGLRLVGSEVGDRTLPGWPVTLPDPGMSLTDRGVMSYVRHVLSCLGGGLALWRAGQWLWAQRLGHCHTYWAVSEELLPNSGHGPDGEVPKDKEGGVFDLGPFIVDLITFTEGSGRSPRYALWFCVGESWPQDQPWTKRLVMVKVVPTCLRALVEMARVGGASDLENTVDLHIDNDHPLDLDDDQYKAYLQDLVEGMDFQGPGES
Oligonucleotide	fitted relative affinity [z-score]
TTAGGTATCATTTTCCTTTAGTGCTAG	5.76
GACGATCTCAGACTGTAGACGTGCTAG	0.29
TCATTTTTTTGTATTTTACTGTGCTAG	1.12
GACGAACTGGAGACTGGAGACGTGCTA	-0.292
GACGGACTGTGTCTCGGGACGTGCTAG	-0.49
TTAGGTATCCTTATCTTTTAGTGCTAG	4.63

Study 2
Target: RING finger protein unkempt homolog, zinc fingers 1-6, GST-SBP tag (UNK, Homo sapiens, UniProt Q9C0B0, residues 30-357)
Chain of UniProt Q9C0B0 (30-357, looked up): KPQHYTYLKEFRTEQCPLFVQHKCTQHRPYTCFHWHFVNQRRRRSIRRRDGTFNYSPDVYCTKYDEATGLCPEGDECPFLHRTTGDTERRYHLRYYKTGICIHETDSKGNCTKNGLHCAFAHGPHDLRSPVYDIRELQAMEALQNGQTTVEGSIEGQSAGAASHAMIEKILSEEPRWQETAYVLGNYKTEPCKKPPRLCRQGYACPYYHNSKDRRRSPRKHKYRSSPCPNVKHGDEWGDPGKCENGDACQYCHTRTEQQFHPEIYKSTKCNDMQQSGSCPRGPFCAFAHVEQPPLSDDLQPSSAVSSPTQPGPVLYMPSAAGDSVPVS
Method: RNA Bind-n-Seq
Form: RNA
Matrix: in vitro
Tested at: not given
Setting: RNA with constant flanks, human and mouse sites, ends assumed
Relative to: input RNA pool
Reading: higher = stronger binding
Shared flanks, not repeated: GGGAGUUCUACAGUCCGACGAUC … CAACAGAGGAUUGAGCAUCA
Oligonucleotide	bound/input enrichment [ratio]
CUCAGGCCAAGACUUCCCAAGAUUAUCAGGCCUUAACAGUACAUGACAAUUUGGCUAUGAAAAUUUGCAAUGAGAUCUUAACAAGUCCGUGCUCGCCAGAAAUUCGAGUCUAUACAAAAG	0.108
UGUGACAAGCUUUAUACCUGCCGGCUGUGUCACGAUACCAAUGAAGAUCAUCAGCUAGAUCGUUUCAAAGUCAAGGAAGUGCAGUGCAUCAACUGUGAAAAACUCCAACAUGCCCAGCAG	0.149
GUCCAGUUAAACAAGAAGUGUUCAGCUGUAAAACAUAAUAGAAUCAAGGGAAUUCCCAAACUCGAUGAUGCCAAUGAUGCAGGGGGCCGAAACUCCACUGAGUGUACGCUUAUCCUGACU	0.196
UAUCUUUAUAAGUACCUGUGGAGACUGAUGGUGAAGGACAUGUCCAGUAUAUACAGCAUGUACAGCACACUCCUGGCUCAUAAAAAACUACAUAUAAGAAAUUUUGCUGCUGAAAGUUUU	0.525
GAAAAGGCACAGCUUCACUUAGACCAAGUACUCACUAGUCCUUUCAACACAACAUUUCCACUCGACUACAUGAAAGAUGAGUUCCUUCCAGCUCUGUCUUUACAAAGCGGUGCUUUAGAU	0.898
AGAUCCAUUGCCGUAGAUCCCAGCACAAGCAAGUCGGCAGACUCGAGGUGGCAAAAAGAAGUAGCGAUGCUGAGGAAGGAGACCGAGGACCUUCAACAACAAUGCCUUUAUCUAAAUGAA	0.212

Study 3
Target: CCND3, cyclin fold, Cln2 fusion (human)
Method: yeast growth competition, sequencing
Matrix: yeast
Setting: weak parent motif
Relative to: not given
Reading: higher = stronger binding
Starting sequence: CDKN1A docking peptide (human); SKACRRLFGPVDS; partner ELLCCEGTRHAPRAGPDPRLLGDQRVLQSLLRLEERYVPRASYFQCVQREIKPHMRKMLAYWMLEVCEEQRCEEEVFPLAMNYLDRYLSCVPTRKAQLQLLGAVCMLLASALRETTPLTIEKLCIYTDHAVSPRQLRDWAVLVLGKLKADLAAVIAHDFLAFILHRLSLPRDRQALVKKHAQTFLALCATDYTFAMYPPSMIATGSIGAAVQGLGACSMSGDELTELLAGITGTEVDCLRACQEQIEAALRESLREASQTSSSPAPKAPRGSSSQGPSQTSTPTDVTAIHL
Variant	normalised enrichment score
G9N	0.204
R5G	0.101
D12V	0.274

Further values, each from its own experiment
Substance	target	test	system	setting	how to read	endpoint	result
PhoQ, residues 284 288 289 292 302 303 GTAMQF	PhoP, residues 12 14 15 18 19 AGCRL (Escherichia coli, UniProt P23836)	Sort-seq, measured: YFP reporter	E. coli	PhoQ-PhoP variant library, with: 10 µM Mg2+	relative to: high Mg2+ state, higher = stronger signaling	fold induction	2.61
